# Results collected from several papers.
# Each line is one published result; not all experiments were run side by side. Several values in a cell are separate wells, animals, samples, runs or records. ± gives the spread as reported.
Structure (SMILES),target or system,test,system,setting,how to read,quantity,result
O=S1(=O)CC2CCCCC2CS1 (centres unmarked),,"phase solubility, NMR",water,"25 °C, with: hydroxypropyl-β-cyclodextrin 111 mM",,solubility,13.6 mM
COCC1CN(C2CCN(c3cc(OC)c(Nc4ncc(Br)c(Nc5ccc6c(c5P(C)(C)=O)OCCO6)n4)cc3C)CC2)C1,,,"EGFR-mutant NSCLC patients, plasma","oral, 150 mg single dose, geometric mean",,AUC(0-inf),15700 ng·h/mL
CC(C)(O)c1ncc([S@](N)(=O)=NC(=O)Nc2c3c(cc4c2CCC4)CCC3)s1,,"measured: general, administration-site conditions",healthy human,"oral, 100 mg, CT formulation, fasted",,subjects with TEAEs,17%
CC[C@H](C)[C@@H]1NC(=O)[C@H](Cc2ccc(O)cc2)NC(=O)CCCSC[C@@H](C(=O)N(CC(=O)N[C@@H](CC(C)C)C(=O)NCC(N)=O)Cc2ccc(F)cc2)NC(=O)[C@H](CC(N)=O)NC(=O)[C@H](CCC(N)=O)NC1=O,,,human,"intranasal and intravenous, 400 µg intranasal and 20 µg intravenous",,drug-related headache,33%
CC1Cc2ccccc2N1C(=O)CN1CCN(Cc2ccccc2)CC1 (centres unmarked),,,"female NMRI mice, whole blood","intraperitoneal, 10 mg/kg free base, 60 min",reference: brain over blood,brain to blood ratio,8.18 and 9.11
C/C(N)=N/C(=N\S(=O)(=O)c1ccc(C(F)(F)F)cc1)N1C[C@H](c2ccccc2)C(c2ccc(Cl)cc2)=N1,,,"male C57BL/6 mouse, lung","oral, 10 mg/kg",,half-life,3.1 h
O=C(N/N=C/c1ccc(-c2ccccc2Cl)o1)c1ccccc1,Trypanosoma cruzi,"reporter mRNA translation, inhibitor, measured: capped polyadenylated Renilla luciferase mRNA",cell-free extract,concentration not given,reference: positive over negative control,translation activity,114% and 106% and 96.3% and 105%
Oc1cccc(-c2cccc(O)n2)n1.[Cl-].[Cl-].[Ru+2].c1ccc(-c2ccnc3c2ccc2c(-c4ccccc4)ccnc23)cc1.c1ccc(-c2ccnc3c2ccc2c(-c4ccccc4)ccnc23)cc1,,,acetonitrile,acidic form,,singlet oxygen quantum yield,0.05
CN(C)S(=O)(=O)c1ccc(S(=O)(=O)N2CCC(n3c(=O)[nH]c4ccccc43)CC2)cc1,,,mouse,"dose not given, day 3",reference: day 0,relative body weight,93% and 96% and 99%
Cc1c(Cc2cc(Cl)cc(OC(C)C(=O)O)c2)c2ccc(C(=O)NC(C)c3ccc(C(C)(C)C)cc3)cc2n1CC1CC1 (centres unmarked),,,human liver microsomes,"1 µM, with: microsomes 1 mg/mL",,half-life,> 1 h
CCCCN1C(=O)c2cccc3c(NCCCN4CCOCC4)ccc(c23)C1=O,,,methanol,,,fluorescence quantum yield,0.47
CO.Cc1ccc2c(Cl)cc(Cl)c([O-])c2n1.Cc1ccc2c(Cl)cc(Cl)c([O-])c2n1.[Co+2].c1ccc2nc3c4cccnc4c4ncccc4c3nc2c1,,,"nude mouse, HeLa xenograft","2.0 mg/kg, start of treatment",,body weight,18.8 ± 1.3 g
CN1CCC[C@]1(C)/C=C/S(=O)(=O)NC(=O)Nc1c2c(cc3c1CC(O)C3)CCC2 (some centres unmarked),,,"human, plasma","oral, 12.5 mg twice daily of parent drug, day 14, metabolite of dosed drug",,Cmax at second steady-state dose,1500 ng/mL
C=C(NC(=O)c1csc(-c2nc3c(cc2O)-c2nc(cs2)C(=O)NC(C(C)O)C(=O)NC(=C(C)OC)c2nc(cs2)C(=O)NC2c4nc(cs4)C(=O)NC(COC(=O)c4c5c6c(cccc6n4O)COC(=O)C(OC4CC(C)(O)C(N(C)C)C(C)O4)C2OC5)c2nc-3cs2)n1)C(N)=O (centres unmarked),,measured: parent drug,"Sprague-Dawley rats, both sexes, bile","intravenous, 6 mg/kg, 24 h",,biliary excretion,26%
C=CC(=O)Nc1cc(Nc2nccc(-c3c[nH]c4ccccc34)n2)c(OC)cc1N(C)CCN(C)C,,storage stability,human plasma,"2 h, -80 °C, LLOQ level",,recovery,103%
CN1CCC[C@]1(C)/C=C/S(=O)(=O)NC(=O)Nc1c2c(cc3c1CCC3O)CCC2 (some centres unmarked),,,"human, plasma","oral, 12.5 mg twice daily of parent drug, day 14, metabolite of dosed drug",,Cmax at second steady-state dose,10900 ng/mL
C#CCOCCOCCOCCOCCn1cc(C(ONC(=O)/C=C/C(C)=C/C2(C)Oc3cc(N(C)C)ccc3C2=O)(c2ccc(C)cc2)c2ccc(C)cc2)nn1 (centres unmarked),,HPLC,"aqueous buffer, 20% acetonitrile","concentration not given, 24 min, pH 3",reference: initial prodrug amount,release from prodrug hydrolysis,93.2%
Cc1c(Cc2cccc(OC(C)(C)C(=O)O)c2)c2ccc(C(=O)N[C@@H](C)c3ccc(F)c(C(C)(C)C)c3)cc2n1CC(C)C,,,human liver microsomes,"1 µM, with: microsomes 1 mg/mL",,half-life,> 1 h
[123I]c1ccc2nc(-c3ccc(-n4ccnn4)nc3)cn2c1,,,"male Wistar rat, spleen","intravenous, 4 MBq, 24 h",,tracer uptake,0.004 %ID/g
CC(C)[C@H](NC(=O)[C@H](Cc1ccccc1)NC(=O)[C@H](Cc1ccccc1)NC(=O)OCC1c2ccccc2-c2ccccc21)C(=O)N[C@@H](CCC(=O)O)C(=O)N[C@@H](CCC(=O)O)C(N)=O,,CD spectroscopy,peptide nanofibres,,,β-turn content,12.3%
O=C(Nc1cnccc1-c1ccc([18F])nc1)c1ccnc(NC(=O)C2CC2)c1,,ex vivo gamma counting,"FVB/NJ mice, both sexes, salivary gland","intravenous, 120 min, with: tariquidar 15 mg/kg iv",,mean SUV,0.186
CC[C@H](C)[C@H](NC(=O)[C@H](CCCCN)NC(=O)[C@H](CCC(=O)O)NC(=O)[C@H](CO)NC(=O)[C@H](Cc1ccccc1)NC(=O)[C@H](CC(C)C)NC(=O)[C@H](CCC(N)=O)NC(=O)[C@H](CO)NC(=O)[C@H](C)NC(=O)[C@H](CCCCN)NC(=O)[C@H](Cc1c[nH]cn1)NC(=O)[C@H](Cc1c[nH]c2ccccc12)NC(=O)[C@H](CCC(N)=O)NC(=O)[C@H](CCCCN)NC(=O)[C@H](CCCCN)NC(=O)[C@H](CC(C)C)NC(=O)CNC(=O)[C@H](C)NC(=O)[C@@H](NC(=O)[C@H](CO)NC(=O)[C@@H](N)CCSC)C(C)C)C(=O)N[C@@H](CO)C(=O)NCC(=O)N[C@@H](C)C(N)=O,,circular dichroism titration,100% DOPS liposomes,"50 µM, pH 7.4, 20 °C",,ΔG of binding,-7.5 kcal/mol
Cc1noc(C)c1Cn1cc(N2C(=O)CN(Cc3cccc(OS(=O)(=O)O)c3)C2=O)cn1,,,"Sprague-Dawley rat, male","oral, 30 mg/kg of parent drug, 8 h",,plasma concentration,1690 ng/mL
Cc1ccc(OCC(=O)N(Cc2cccs2)c2ccn[nH]2)cc1,,,pooled human liver microsomes,"10 µM, 10 min",reference: time 0,remaining compound,61.8%
CN1CCC[C@@H]1C(=O)N[C@@H](Cc1ccc(-c2ccccc2)cc1)B(O)O,,,"NODscidIL2Rγnull mice, whole blood","oral, 50 mg/kg, 2 h, mean",,blood concentration,730 ng/mL
CNc1cc(C)c(C(N)=O)cn1,,,"Han Wistar rats, male, plasma","oral, 30 mg/kg, 4.00 h",,concentration at time,33.2 µM
CC(C)n1ncc2c(C(=O)NCC3CNC3)cc(C3CC3)nc21,,metabolic stability,"mouse, liver microsomes",,,scaled CLint,< 38 mL/min/kg
O=C(Nc1cccc(CNc2ncccn2)c1)c1cc(-c2ccccc2)n(-c2ccccc2)n1,,,human liver microsomes,4 h,,depletion,< 15%
N#C/N=C(\N)Nc1cccc(C(=O)NCC(=O)NC[C@H](NC(=O)c2c(Cl)cc(-c3ccccc3)cc2Cl)C(=O)O)c1,,,Caco-2,,,efflux ratio,62
CC(=O)N([O-])CCCCCNC(=O)CCC(=O)N([O-])CCCCCNC(=O)CCC(=O)N([O-])CCCCCN.[89Zr+4],,,"mouse, lung",1 h,,tracer uptake,0.74 %ID/g
C=CC(=O)Nc1cccc(Cn2ncc3cnc(Nc4cnn(CCOC)c4)nc32)c1,,,mouse hepatocytes,,,scaled intrinsic clearance,88.2 mL/min/kg
CC(C)C[C@H](NC(=O)[C@H](CCCCN)NC(=O)C1CCCC=CCCC(NC(=O)[C@H](CCCCN)NC(=O)[C@@H](N)CC(C)C)C(=O)N[C@@H](CCCCN)C(=O)N[C@@H](CC(C)C)C(=O)N[C@@H](CCCCN)C(=O)N2CCC[C@@H]2C(=O)NCC(=O)N[C@@H](CCCCN)C(=O)N[C@@H](CC(C)C)C(=O)N[C@@H](CCCCN)C(=O)N1)C(N)=O (some centres unmarked),,RP-HPLC C18,,hydrophobicity,,retention time,14.6 min
CN1CCCNC(=O)c2cccc(c2)C(=O)NCCCN(C)CCCNc2cccc3c2C(=O)c2cccc(c2C3=O)NCCC1,,,mouse xenograft model,"dose not given, day 2",,body weight,25 g and 24 g and 26 g
O=C(c1ccccc1)N1C(c2ccc(OCC3CCN(CCCF)C3)cc2)c2ccc(O)cc2CC12CC2 (centres unmarked),,,"C57BL/6J mouse, plasma","intraperitoneal, 25 mg/kg",,AUC(0-t),7360 ng·h/mL and 9410 ng·h/mL
O=C(O)CN1CCN(CC(=O)O)CCN(CC(O)CN(CC(O)CN2CCN(CC(=O)O)CCN(CC(=O)O)CCN(CC(=O)O)CC2)C[C@H](O)[C@@H](O)[C@H](O)[C@H](O)CO)CCN(CC(=O)O)CC1 (some centres unmarked),,"pH-potentiometry, measured: ZnH2L",,"25 °C, 0.15 M NaCl",,log K,9.39
COc1ccnc(C(=O)N[C@H]2COC(=O)[C@H](Cc3ccccc3)[C@@H](OC(=O)C(C)C)[C@H](C)OC2=O)c1O,,FOCUS PEARL groundwater modelling,soil,geometric mean input,,KOC,4520 mL/g
N=C(N)NCCC[C@@H]1NC(=O)[C@H](CO)NC(=O)[C@@H](NC(=O)[C@H](CO)NC(=O)[C@H](CO)NC(=O)[C@H](Cc2c[nH]c3ccccc23)NC(=O)CNC(=O)[C@H](CO)NC(=O)[C@@H](N)Cc2c[nH]c3ccccc23)CSSC[C@@H](C(=O)NCC(=O)O)NC(=O)[C@H](CO)NC1=O,,,"patients, plasma","intravenous, 5 mg/kg, thrice weekly, mean",,AUC(0-inf),379 ng·h/mL
O=C([O-])CN1CCN(CC(=O)[O-])CCN(C(CO)C(O)CO)CCN(CC(=O)[O-])CC1.[Dy+3] (centres unmarked),,ICP-MS,cynomolgus monkey,"dose not given, 2 d, mass balance group",reference: dose,cumulative urinary excretion,98.1%
Cc1nc(N)nc2c1C(=O)N[C@@H](c1ccc(F)cc1-c1cccc(O[11CH3])n1)C2,,ex vivo biodistribution,"mice, MDA-MB-231 subcutaneous xenograft, intestines","60 min post-injection, baseline, vehicle pre-treatment",,tracer uptake,19.9 ± 0.3 %ID
C[C@@H](Nc1nc2c(cnn2C(C)(C)C)c(=O)n1Cc1cccc(F)c1)c1ccc(Cl)cc1,,,"C57BL/6J mice, male, brain","oral, 10 mg/kg, 1 h",,brain concentration,236 ± 41.6 ng/g
Cc1cc(-c2ccc(C(=O)[C@@H]3CCCC[C@H]3C(=O)Nc3cnn4c3C(=O)NCC4)cc2)[nH]n1,,,"human, urine","oral, 200 mg, 96-120 h",reference: dose,recovery of radioactivity per interval,0.02%
O=C(Nc1ccccc1)C12CC3CC(C1)CC(n1cnc([N+](=O)[O-])n1)(C3)C2,Trypanosoma cruzi,"reporter mRNA translation, inhibitor, measured: Renilla luciferase mRNA",cell-free extract,"concentration not given, test 2",reference: positive over negative control,translation activity,138% and 105%
C=C[C@]1(C)C[C@@H](OC(=O)CSc2ccc(NC(=O)c3ccco3)cc2)[C@]2(C)[C@H](C)CC[C@]3(CCC(=O)[C@H]32)[C@@H](C)[C@@H]1O,,,"M. gallisepticum-infected chickens, plasma","intramuscular, 5 mg/kg single dose",,Cmax,560 ng/mL and 562 ng/mL
O=C(NS(=O)(=O)c1cccs1)c1cc2ccccc2n1Cc1ccc(Br)c2ccccc12,,,"Sprague-Dawley rat, male","intravenous, dose not given, 4 h",,plasma concentration,22.6 ng/mL
